Assay results gathered from unrelated publications.
Protocols differ between the studies behind these lines.
Organism: Pseudomonas aeruginosa

`O=C(Nc1ccc(F)c(F)c1)c1cc(Cl)ccc1O` gave an MIC of over 64 µg/mL (microbial growth, broth dilution; ATCC27853).
For `gentamicin`, the MIC was 0.5 µg/mL (ATCC 27853; 18 h, pH 7).
With `O=C(Nc1ccccc1)c1cc(Cl)ccc1O` the MIC was over 64 µg/mL (microbial growth, broth dilution; ATCC27853).
The MIC of `CC(C)C[C@H](NC(=O)CNC(=O)[C@H](C)NC(=O)c1ccc(S[C@@H]2O[C@H](CO)[C@H](O)[C@H](O)[C@H]2O)cc1)C(=O)N[C@@H](C)C(=O)N[C@H]1CCN(c2cc3c(cc2F)c(=O)c(C(=O)O)cn3C2CC2)C1` is reported as 0.78 to 6.25 µM (broth microdilution; PA14, human plasma with LB in PBS; 50% plasma, 10% LB, pre-incubation 3 h).
`CNC(C)C1CCC(N)C(OC2C(N)CC(N)C(OC3OCC(C)(O)C(NC)C3O)C2O)O1` (stereo not drawn) has an MIC of 1 µg/mL (microbial growth; ATCC27853).
`O=C(Nc1ccc(Cl)c(C(F)(F)F)c1)c1cc(Cl)ccc1O` has an MIC of over 64 µg/mL (microbial growth, broth dilution; ATCC27853).
The MIC of `CC(C)C[C@H](NC(=O)CNC(=O)[C@H](C)NC(=O)c1ccc(S(=O)(=O)NC[C@H]2O[C@@H](C)[C@@H](O)[C@@H](O)[C@@H]2O)cc1)C(=O)N[C@@H](C)C(=O)NC[C@@H]1CCN(c2cc3c(cc2F)c(=O)c(C(=O)O)cn3C2CC2)C1` is reported as 1.56 to 3.13 µM (broth microdilution; PA14, P. aeruginosa supernatant in PBS; 10% supernatant, 3 h preincubation).
`CCc1cc(=O)c2c(OCC(O)CN3CCOCC3)c3ccoc3c(OC)c2o1` (stereo not drawn) gave an MIC of over 256 µg/mL (broth microdilution; ATCC 15442; 19 h, 35 °C).
For `CC(C)C[C@H](NC(=O)CNC(=O)[C@H](C)NC(=O)c1ccc(S(=O)(=O)NC[C@H]2O[C@@H](C)[C@@H](O)[C@@H](O)[C@@H]2O)cc1)C(=O)N[C@@H](C)C(=O)N[C@H]1CCN(c2cc3c(cc2F)c(=O)c(C(=O)O)cn3C2CC2)C1`, the MIC was 0.78 to 1.56 µM (broth microdilution; PA14, human plasma with P. aeruginosa supernatant; 50% plasma, 10% supernatant, preincubation under 10 min).
`CCc1cc(=O)c2c(OCC(O)CNC(C)C)c3ccoc3c(OC)c2o1` (stereo not drawn) has an MIC of over 256 µg/mL (broth microdilution; ATCC 15442; 19 h, 35 °C).
The MIC of `CC(C)C[C@H](NC(=O)CNC(=O)[C@H](C)NC(=O)c1ccc(S[C@@H]2O[C@H](CO)[C@H](O)[C@H](O)[C@H]2O)cc1)C(=O)N[C@@H](C)C(=O)NC[C@@H]1CCN(c2cc3c(cc2F)c(=O)c(C(=O)O)cn3C2CC2)C1` is reported as 3.13 to 12.5 µM (broth microdilution; PA14, human plasma with P. aeruginosa supernatant; 50% plasma, 10% supernatant, preincubation under 10 min).
`O=C(Nc1ccccc1F)c1cc(Cl)ccc1O` gave an MIC of over 64 µg/mL (microbial growth, broth dilution; ATCC27853).
`C[C@H]1COc2c(N3CCN(C)CC3)c(F)cc3c(=O)c(C(=O)O)cn1c23` gave an MIC of 3.62 µg/mL (ATCC 27853; ≥80% growth inhibition).
`CC(C)C[C@H](N)C(=O)N[C@@H](C)C(=O)N[C@H]1CCN(c2cc3c(cc2F)c(=O)c(C(=O)O)cn3C2CC2)C1` has an MIC of over 25 µM (broth microdilution; PA14; preincubated in buffer).
For `Cc1cc(C)n(C(N)=S)n1.Cc1ccc(C(C)C)cc1.[Cl][Ru][Cl]`, the MIC was over 1000 µg/mL (broth microdilution; ATCC 25619; 37 °C).

A few entries again:
`O=C(Nc1ccccc1F)c1cc(Cl)ccc1O` gave an MIC of over 64 µg/mL (microbial growth, broth dilution; ATCC27853).
`C[C@H]1COc2c(N3CCN(C)CC3)c(F)cc3c(=O)c(C(=O)O)cn1c23` gave an MIC of 3.62 µg/mL (ATCC 27853; ≥80% growth inhibition).
